Measured values gathered from unrelated publications.
Compare with care: the assays were run in different laboratories. ± gives the spread as reported.
CYP2C19: Cytochrome P450 2C19 (CYP2C19, Homo sapiens, UniProt P33261)
UniProt P33261, sequence (whole entry, looked up): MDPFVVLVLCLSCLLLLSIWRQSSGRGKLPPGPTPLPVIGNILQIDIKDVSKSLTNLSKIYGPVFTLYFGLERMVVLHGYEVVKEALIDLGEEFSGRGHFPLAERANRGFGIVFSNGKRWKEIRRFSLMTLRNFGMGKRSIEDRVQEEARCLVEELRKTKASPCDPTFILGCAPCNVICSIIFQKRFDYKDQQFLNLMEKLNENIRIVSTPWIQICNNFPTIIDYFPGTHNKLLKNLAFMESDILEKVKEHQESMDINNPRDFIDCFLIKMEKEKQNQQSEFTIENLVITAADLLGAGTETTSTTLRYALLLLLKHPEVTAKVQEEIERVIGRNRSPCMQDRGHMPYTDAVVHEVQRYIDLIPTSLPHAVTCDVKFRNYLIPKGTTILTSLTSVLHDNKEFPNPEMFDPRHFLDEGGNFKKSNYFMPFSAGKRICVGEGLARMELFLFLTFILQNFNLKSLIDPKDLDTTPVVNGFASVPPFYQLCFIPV
AHR: Aryl hydrocarbon receptor (AHR, Delphinapterus leucas, UniProt Q95LD9)
UniProt Q95LD9, sequence (whole entry, looked up): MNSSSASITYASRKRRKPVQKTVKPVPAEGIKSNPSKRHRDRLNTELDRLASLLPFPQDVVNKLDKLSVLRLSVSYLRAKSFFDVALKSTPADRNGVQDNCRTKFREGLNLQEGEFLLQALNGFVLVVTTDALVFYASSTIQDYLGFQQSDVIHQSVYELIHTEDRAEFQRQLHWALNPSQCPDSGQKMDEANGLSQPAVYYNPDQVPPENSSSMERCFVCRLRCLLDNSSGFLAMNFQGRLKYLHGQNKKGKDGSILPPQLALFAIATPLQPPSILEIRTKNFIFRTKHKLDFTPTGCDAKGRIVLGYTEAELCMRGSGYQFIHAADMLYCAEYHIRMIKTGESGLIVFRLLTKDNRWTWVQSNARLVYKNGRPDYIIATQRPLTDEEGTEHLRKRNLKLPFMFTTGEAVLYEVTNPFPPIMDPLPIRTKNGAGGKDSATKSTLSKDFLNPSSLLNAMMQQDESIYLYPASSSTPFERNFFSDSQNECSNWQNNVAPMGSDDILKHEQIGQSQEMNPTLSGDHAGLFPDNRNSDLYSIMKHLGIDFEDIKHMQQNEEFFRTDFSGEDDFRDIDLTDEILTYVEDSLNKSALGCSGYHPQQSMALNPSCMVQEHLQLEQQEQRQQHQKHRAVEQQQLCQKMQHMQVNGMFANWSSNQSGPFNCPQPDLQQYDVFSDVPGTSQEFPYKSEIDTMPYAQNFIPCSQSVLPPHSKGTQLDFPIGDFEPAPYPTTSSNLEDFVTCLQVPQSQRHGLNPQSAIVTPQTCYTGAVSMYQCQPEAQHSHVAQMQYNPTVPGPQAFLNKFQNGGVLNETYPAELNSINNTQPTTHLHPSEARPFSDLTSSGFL
CYP2C9: Cytochrome P450 2C9 (CYP2C9, Homo sapiens, UniProt P11712)
UniProt P11712, sequence (whole entry, looked up): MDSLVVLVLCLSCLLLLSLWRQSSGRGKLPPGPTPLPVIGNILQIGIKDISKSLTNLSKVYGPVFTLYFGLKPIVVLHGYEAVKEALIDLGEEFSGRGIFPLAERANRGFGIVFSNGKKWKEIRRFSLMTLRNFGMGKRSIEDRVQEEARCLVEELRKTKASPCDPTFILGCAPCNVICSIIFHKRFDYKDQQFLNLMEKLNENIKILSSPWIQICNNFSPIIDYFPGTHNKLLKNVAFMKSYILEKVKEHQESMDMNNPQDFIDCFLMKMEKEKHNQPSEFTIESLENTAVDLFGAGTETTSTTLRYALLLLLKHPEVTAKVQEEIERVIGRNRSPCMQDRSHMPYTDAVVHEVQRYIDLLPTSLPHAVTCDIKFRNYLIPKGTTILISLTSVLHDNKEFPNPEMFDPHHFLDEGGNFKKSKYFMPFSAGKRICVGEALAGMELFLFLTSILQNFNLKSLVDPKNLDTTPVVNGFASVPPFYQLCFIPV
UniProt P08183, sequence (whole entry, looked up): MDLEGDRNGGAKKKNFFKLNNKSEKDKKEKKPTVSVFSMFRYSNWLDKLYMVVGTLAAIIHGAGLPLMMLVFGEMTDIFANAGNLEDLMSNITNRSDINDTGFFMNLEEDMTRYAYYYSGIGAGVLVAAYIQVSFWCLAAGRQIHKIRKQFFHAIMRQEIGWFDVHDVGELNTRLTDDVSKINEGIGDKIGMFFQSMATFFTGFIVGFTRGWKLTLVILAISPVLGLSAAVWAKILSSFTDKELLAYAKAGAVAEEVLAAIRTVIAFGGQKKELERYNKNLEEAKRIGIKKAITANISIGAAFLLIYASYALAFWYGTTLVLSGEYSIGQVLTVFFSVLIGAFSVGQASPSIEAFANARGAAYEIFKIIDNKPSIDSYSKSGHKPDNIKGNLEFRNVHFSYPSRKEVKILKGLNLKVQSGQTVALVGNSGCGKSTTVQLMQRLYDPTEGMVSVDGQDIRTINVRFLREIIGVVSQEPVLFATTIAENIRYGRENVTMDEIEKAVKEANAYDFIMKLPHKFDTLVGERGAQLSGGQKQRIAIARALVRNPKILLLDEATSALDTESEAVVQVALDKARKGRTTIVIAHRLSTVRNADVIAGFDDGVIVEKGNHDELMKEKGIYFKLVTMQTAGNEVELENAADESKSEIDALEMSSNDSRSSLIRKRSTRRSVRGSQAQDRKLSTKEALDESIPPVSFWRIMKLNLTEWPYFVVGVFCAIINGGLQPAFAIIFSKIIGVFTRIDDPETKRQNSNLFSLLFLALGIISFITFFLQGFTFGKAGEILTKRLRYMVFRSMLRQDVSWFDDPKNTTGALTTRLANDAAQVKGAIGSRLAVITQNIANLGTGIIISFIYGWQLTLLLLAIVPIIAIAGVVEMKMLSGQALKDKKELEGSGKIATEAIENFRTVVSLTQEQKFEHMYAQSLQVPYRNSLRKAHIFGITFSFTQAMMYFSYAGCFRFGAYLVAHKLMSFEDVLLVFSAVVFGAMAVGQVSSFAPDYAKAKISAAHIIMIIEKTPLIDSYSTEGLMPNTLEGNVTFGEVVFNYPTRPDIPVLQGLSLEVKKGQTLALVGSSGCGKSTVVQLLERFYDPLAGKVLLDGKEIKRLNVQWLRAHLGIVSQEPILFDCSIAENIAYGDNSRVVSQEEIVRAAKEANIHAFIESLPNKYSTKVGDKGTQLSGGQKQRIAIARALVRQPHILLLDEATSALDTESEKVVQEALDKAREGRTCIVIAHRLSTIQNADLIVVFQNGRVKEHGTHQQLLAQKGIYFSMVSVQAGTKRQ
UniProt Q86VL8, sequence (whole entry, looked up): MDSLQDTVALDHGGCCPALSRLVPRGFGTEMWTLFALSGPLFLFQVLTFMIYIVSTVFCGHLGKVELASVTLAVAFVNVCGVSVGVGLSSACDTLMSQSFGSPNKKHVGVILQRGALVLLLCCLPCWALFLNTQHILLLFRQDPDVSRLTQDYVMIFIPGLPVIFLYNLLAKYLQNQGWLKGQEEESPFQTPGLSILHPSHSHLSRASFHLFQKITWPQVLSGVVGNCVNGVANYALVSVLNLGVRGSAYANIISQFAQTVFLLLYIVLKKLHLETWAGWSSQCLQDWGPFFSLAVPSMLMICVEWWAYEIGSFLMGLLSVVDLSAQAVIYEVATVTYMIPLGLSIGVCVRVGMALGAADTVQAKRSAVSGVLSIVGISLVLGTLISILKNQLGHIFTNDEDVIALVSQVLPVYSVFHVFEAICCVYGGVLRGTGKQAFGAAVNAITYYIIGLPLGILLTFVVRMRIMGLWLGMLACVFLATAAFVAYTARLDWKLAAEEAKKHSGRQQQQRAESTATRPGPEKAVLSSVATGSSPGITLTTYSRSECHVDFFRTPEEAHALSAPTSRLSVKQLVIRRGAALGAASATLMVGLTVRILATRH

O=C(O)C(F)(OC(F)(F)C(F)(F)C(F)(F)F)C(F)(F)F (stereo not drawn)  IC50 (CYP2C19; enzyme activity, inhibitor; Supersomes, together with: 7-BFC substrate): > 100 µM
N#Cc1ccc(N2N=C3c4ccc(C(=O)N5CCC(O)CC5)nc4CC[C@@H]3[C@@H]2C2CCCC2)cc1Cl  IC50 (SLC47A2 (Homo sapiens, UniProt Q86VL8); transporter uptake, inhibitor): 7.9 µM
Clc1cc(-c2cc(Cl)c(Cl)c(Cl)c2)cc(Cl)c1Cl  IC50 (AHR; binding, competitor; in vitro expressed receptor, together with: [3H]TCDD): 0.0251 µM
O=S(=O)(O)C(F)(F)C(F)(F)C(F)(F)C(F)(F)C(F)(F)C(F)(F)C(F)(F)C(F)(F)F  IC50 (CYP2C19; enzyme activity, inhibitor, fluorescence): 46.6 µM
C[C@@H]1CC[C@]2(C(=O)O[C@@H]3O[C@H](CO)[C@@H](O)[C@H](O)[C@H]3O)CC[C@]3(C)C(=CC[C@@H]4[C@@]5(C)CC[C@H](O)[C@@](C)(CO)[C@@H]5CC[C@]43C)[C@@H]2[C@]1(C)O  IC50 (CYP3A4/5; enzyme activity, inhibitor, probe cocktail incubation; pooled human liver microsomes; 20 min, together with: midazolam 1.535 µM and testosterone 17.34 µM): > 50 µM
Clc1ccc(-c2cc(Cl)c(Cl)c(Cl)c2Cl)cc1Cl  IC50 (AHR; binding, competitor; in vitro expressed receptor, together with: [3H]TCDD): 1.59 µM
CC(=O)CC(c1ccccc1)c1c(O)c2cccc(O)c2oc1=O (stereo not drawn)  IC50 (CYP2C9; enzyme activity, inhibitor, luciferase): 16 µM
COc1ccc2c3c1O[C@H]1C[C@@H](OC(=O)CCCCCCCCC(=O)O[C@H]4C=C[C@@]56CCN(C)Cc7ccc(OC)c(c75)O[C@H]6C4)C=C[C@@]31CCN(C)C2  IC50 (ABCB1 (Homo sapiens, UniProt P08183); BODIPY-FL-verapamil accumulation, inhibitor, flow cytometry; MCF7/DX1; together with: 0.5 µM BODIPY-FL-verapamil): 0.5 ± 0.1 µM
Clc1ccc(-c2cc(Cl)c(Cl)c(Cl)c2)cc1Cl  IC50 (AHR; binding, competitor; in vitro expressed receptor, together with: [3H]TCDD): 0.0081 µM
CC(=O)CC(c1ccccc1)c1c(O)c2cc(O)ccc2oc1=O (stereo not drawn)  IC50 (CYP2C9; enzyme activity, inhibitor, luciferase): 47 µM
Clc1ccc(-c2cc(Cl)c(Cl)cc2Cl)cc1Cl  IC50 (AHR; binding, competitor; in vitro expressed receptor, together with: [3H]TCDD): 6.31 µM
CC(=O)CC(c1ccccc1)c1c(O)c2ccc(O)cc2oc1=O (stereo not drawn)  IC50 (CYP2C9; enzyme activity, inhibitor, luciferase): 35 µM
